Results collected from several papers.
Numbers after ± are the reported error.
UCHL1: Ubiquitin carboxyl-terminal hydrolase isozyme L1 (UCHL1, Homo sapiens, UniProt P09936)
UniProt P09936, sequence (whole entry, looked up): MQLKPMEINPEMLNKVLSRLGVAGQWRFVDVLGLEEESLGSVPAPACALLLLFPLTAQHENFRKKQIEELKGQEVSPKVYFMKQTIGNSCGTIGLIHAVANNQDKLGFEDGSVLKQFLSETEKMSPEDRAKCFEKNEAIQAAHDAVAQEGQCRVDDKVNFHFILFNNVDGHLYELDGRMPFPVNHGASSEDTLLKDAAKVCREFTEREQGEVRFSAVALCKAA

| Compound | target or system | test | system | setting | endpoint | value |
| --- | --- | --- | --- | --- | --- | --- |
| OC[C@H]1O[C@@H](Oc2cc3c(O)cc(O)cc3[o+]c2-c2ccc(O)c(O)c2)[C@H](O[C@@H]2OC[C@@H](O)[C@H](O)[C@H]2O)[C@@H](O)[C@@H]1O | HIV-1 | viral infection | TZM-bl, BaL (CCR5-tropic) | 48 h | IC50 | > 100000 nM |
| CCCC(C(=O)O)c1c(C)nc2ccc(Cl)cc2c1-c1ccccc1 (stereo not shown) | HIV-1 | viral replication, refers to: Gag p24 | MT-4, NL4-3 | – | IC50 | 7000 nM |
| O=C(CCl)NC(=O)NCCc1cccs1 | UCHL1 | covalent, intact protein LC-MS | – | 12.5 µM | labelling | 44.8% |
| Nc1ccn([C@H]2CC[C@@H](CO)O2)c(=O)n1 | HIV-1 | viral replication, refers to: p24 | PHA-stimulated PBMC, BaL (CCR5-tropic) | 7 days | IC50 | 11 ± 4 nM |
| CC(Cl)C(=O)N1CCn2c(cc3c(Cl)cccc32)C1 (stereo not shown) | UCHL1 | covalent, intact protein LC-MS | – | 12.5 µM | labelling | 15.1% |
| COc1cnc(-n2cnc(C)n2)c2[nH]cc(C(=O)C(=O)N3CCN(C(=O)c4ccccc4)CC3)c12 | HIV-1 | viral replication, inhibitor, pseudovirus neutralization | TZM-bl, 3718.v3.c11 | 48 h | IC50 | 10 nM |
| FC(F)(F)c1cc(CO[C@H]2CCCN[C@H]2c2ccccc2)cc(C(F)(F)F)c1 | HIV-1 | viral replication, refers to: p24 | PHA-stimulated PBMC, BaL (CCR5-tropic) | 7 days | IC50 | 5600 nM |
| C[C@H]1O[C@H](OC[C@H]2O[C@@H](Oc3c(-c4ccc(O)cc4)oc4cc(O)cc(O)c4c3=O)[C@H](O)[C@@H](O)[C@@H]2O)[C@@H](O)[C@@H](O)[C@@H]1O | HIV-1 | viral infection | TZM-bl, NL4-3 (CXCR4-tropic) | 48 h | IC50 | > 100000 nM |
| CC(C)CN(C[C@@H](O)[C@H](Cc1ccccc1)NC(=O)O[C@H]1C[C@@H]2C[C@H]3[C@H](OC[C@H]31)O2)S(=O)(=O)c1ccc2nc(NC3CC3)sc2c1 | HIV-1 | viral replication, antiviral | MT2, LAI | – | IC50 | 0.9 nM |
| COc1cc(-c2oc3cc(O)cc(O)c3c(=O)c2O[C@@H]2O[C@H](CO[C@@H]3O[C@@H](C)[C@H](O)[C@@H](O)[C@H]3O)[C@@H](O)[C@H](O)[C@H]2O)ccc1O | HIV-1 | viral infection | TZM-bl, BaL (CCR5-tropic) | 48 h | IC50 | > 100000 nM |
| CC(C)(C)NC(=O)[C@@H]1C[C@@H]2CCCC[C@@H]2CN1C[C@@H](O)[C@H](Cc1ccccc1)NC(=O)[C@H](CC(N)=O)NC(=O)c1ccc2ccccc2n1 | HIV-1 | viral replication, MTT | MT-2, LAI | – | IC50 | 15 nM |
| CC(C)CN(C[C@@H](O)[C@H](Cc1ccccc1)NC(=O)O[C@H]1CO[C@H]2OCC[C@H]21)S(=O)(=O)c1ccc(N)cc1 | HIV-1 | viral replication | MT-4 | – | IC50 | 4.2 ± 0.9 nM |
| c1cc(CN2CCCNCCNCCCNCC2)ccc1CN1CCCNCCNCCCNCC1 | HIV-1 | viral replication | MAGI, Ba-L | – | IC50 | > 10000 nM |

Excerpt of the above:
| Compound | target or system | test | system | setting | endpoint | value |
| --- | --- | --- | --- | --- | --- | --- |
| CC(C)CN(C[C@@H](O)[C@H](Cc1ccccc1)NC(=O)O[C@H]1C[C@@H]2C[C@H]3[C@H](OC[C@H]31)O2)S(=O)(=O)c1ccc2nc(NC3CC3)sc2c1 | HIV-1 | viral replication, antiviral | MT2, LAI | – | IC50 | 0.9 nM |
| COc1cc(-c2oc3cc(O)cc(O)c3c(=O)c2O[C@@H]2O[C@H](CO[C@@H]3O[C@@H](C)[C@H](O)[C@@H](O)[C@H]3O)[C@@H](O)[C@H](O)[C@H]2O)ccc1O | HIV-1 | viral infection | TZM-bl, BaL (CCR5-tropic) | 48 h | IC50 | > 100000 nM |
